Measured values collected from several papers.
Lines come from different studies, so protocols differ. Values joined by “and” are separate records of one study, mostly repeats; a detail may differ.
Target: Ephrin type-A receptor 4 (EPHA4, Homo sapiens, UniProt P54764)

COc1c(Cl)cccc1Nc1c(-c2ccncc2C#C[C@@]2(C)CCCN2C(=O)/C=C/CN(C)C)[nH]c2c1C(=O)NCC2 — remaining binding (cell-free assay, competition with immobilised ligand; 3 µM): 82%
NC(=O)C[C@H]1CCc2sc3ncnc(O[C@H]4CC[C@H](N5CCOCC5)CC4)c3c21 — inhibition (enzyme activity, inhibitor; 10 µM): 15%
Cc1cnc2nc1Nc1cccc(c1)COC/C=C/COCc1cc(ccc1OCCN1CCOCC1)N2 — remaining binding (binding; 0.1 µM): 98%
O=C=[N][Ru-4]123([n]4c5ccc(O)cc5c5c6c(c7cc(F)c[n+]1c7c54)C(=O)NC6=O)[S+]1CC[S+]2CC[S+]3CC1 (stereo not drawn) — remaining activity (enzyme activity; 100 nM, human enzyme, with: 10 µM ATP; baseline: untreated): 107%
Cc1cccc(O[C@H]2CCC[C@@H](C(C)CNCc3ccncc3)C2)c1 (relative stereo) — inhibition (cell-free assay; 10 µM): -5%
CN1CC[C@@H](COc2cnc(C#N)cc2-c2ccn3nc(NC(=O)C4CC4)cc3c2)C1 — inhibition (enzyme activity, inhibitor; 1 µM): 5%
COc1cc(Nc2nccc(-c3cnn4nc(OC)ccc34)n2)cc(C(F)(F)F)c1 — remaining binding (binding, competition with immobilised ligand; 1 µM): 100%
CNC(=O)C1CCN(c2cc(C)c(F)cc2NC(=O)c2ccc(-c3cc(O)ccc3C)c(C)c2)CC1 — remaining binding (binding, competition with immobilised ligand; 1 µM): 0%
N[C@H]1CC[C@H](Nc2nccc(-c3cccnc3Oc3ccc(NC(=O)NC4CC4)c4ccccc34)n2)CC1 — log2 LFQ intensity (kinobead competition pulldown; HEK293/HCT116 lysate mixture; 10 µM, 1 h, 4 °C; lower = stronger competition): 17.7 and 21.6 and 20.5 and 19.7
C=CC(=O)N1CCCC(n2c(=O)c3ncccc3n(Cc3ccc(Oc4ccccc4)cc3)c2=O)C1 (stereo not drawn) — remaining binding (cell-free assay, competition with immobilised ligand; 1 µM): 100%
CCN1CCN(Cc2ccc(NC(=O)c3ccc(C)c(NC(=O)c4cncc(-c5cccs5)c4)c3)cc2C(F)(F)F)CC1 — remaining binding (binding, competition with immobilised ligand; 1 µM): 2.7%
C=CC(=O)N1CCc2ccc(-n3c(=O)ccc4cnc5ccc(-c6cnn(C)c6)cc5c43)cc21 — remaining binding (KINOMEscan; 1 µM; baseline: DMSO control): 92%
Nc1ncc2c(n1)-c1c([nH]c3ccc(C4=CCOCC4)cc13)CCC2 — remaining binding (binding, competition with immobilised ligand; 1 µM): 90%
C=CC(=O)Nc1cccc(-c2cnc3[nH]cc(C(=O)NC(C)(C)C)c3n2)c1 — inhibition (kinase activity; 0.1 µM): 6% and -2%
C=CC(=O)N1Cc2nc(-c3cc(-c4cc(Cl)cnc4Cl)c(F)cc3F)n(-c3ccncn3)c2C1 — inhibition (cell-free assay; 1 µM): -5.9%

A few entries again:
CNC(=O)C1CCN(c2cc(C)c(F)cc2NC(=O)c2ccc(-c3cc(O)ccc3C)c(C)c2)CC1 — remaining binding (binding, competition with immobilised ligand; 1 µM): 0%
N[C@H]1CC[C@H](Nc2nccc(-c3cccnc3Oc3ccc(NC(=O)NC4CC4)c4ccccc34)n2)CC1 — log2 LFQ intensity (kinobead competition pulldown; HEK293/HCT116 lysate mixture; 10 µM, 1 h, 4 °C; lower = stronger competition): 17.7 and 21.6 and 20.5 and 19.7
